Published values of several laboratories.
Each line is one published result; not all experiments were run side by side. ± marks the error that the study gave. ≈ marks a conversion by molar mass, not a printed value.

Chains of the proteins cited; added tags and fusions are not shown.
UniProt P43403, whole entry: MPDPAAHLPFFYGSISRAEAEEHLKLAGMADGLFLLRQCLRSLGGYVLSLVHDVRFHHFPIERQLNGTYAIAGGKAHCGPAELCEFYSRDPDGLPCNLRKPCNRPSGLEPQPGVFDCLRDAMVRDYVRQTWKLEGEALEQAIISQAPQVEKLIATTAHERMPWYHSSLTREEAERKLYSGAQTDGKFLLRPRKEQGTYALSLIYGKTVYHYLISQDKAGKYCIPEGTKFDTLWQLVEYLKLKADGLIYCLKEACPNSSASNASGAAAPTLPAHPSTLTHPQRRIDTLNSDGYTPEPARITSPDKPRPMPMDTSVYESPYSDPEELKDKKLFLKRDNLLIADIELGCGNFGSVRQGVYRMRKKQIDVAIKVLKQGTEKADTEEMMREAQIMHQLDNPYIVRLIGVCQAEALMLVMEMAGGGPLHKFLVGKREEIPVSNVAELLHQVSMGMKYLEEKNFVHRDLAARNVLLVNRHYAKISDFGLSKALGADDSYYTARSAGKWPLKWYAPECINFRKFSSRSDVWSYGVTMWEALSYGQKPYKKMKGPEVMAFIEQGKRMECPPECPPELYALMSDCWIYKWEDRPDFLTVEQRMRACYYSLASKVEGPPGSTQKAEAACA
UniProt Q96S44, whole entry: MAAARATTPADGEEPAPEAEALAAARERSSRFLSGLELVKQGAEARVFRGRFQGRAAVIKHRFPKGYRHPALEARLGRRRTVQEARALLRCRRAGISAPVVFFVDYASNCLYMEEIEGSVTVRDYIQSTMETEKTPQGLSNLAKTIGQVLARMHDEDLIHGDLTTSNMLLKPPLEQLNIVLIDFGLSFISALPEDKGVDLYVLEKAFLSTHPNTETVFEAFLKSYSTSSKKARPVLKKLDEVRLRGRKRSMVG

SMILES	target or system	test	test system	setting	scale	endpoint	value
COCCOc1ccc2nc3ccc(=O)c(Cl)c-3oc2c1	Mycobacterium tuberculosis	–	mc2 6206 clofazimine-resistant fbiC mutant	7 days	–	MIC90	20 µM (≈ 6.11 µg/mL)
CS(=O)(=O)NC(=O)CCc1cn(-c2ccc(Br)cc2)nc1-c1ccc(Cl)cc1	Mycobacterium tuberculosis	–	MmpL3 G253E mutant	–	–	MIC	4 µM
CC#C/C(=N\OC[C@H]1COCCN1)c1ccc2ncnc(Nc3ccc(OCc4cccc(F)c4)c(Cl)c3)c2c1	Tyrosine-protein kinase ZAP-70 (ZAP70, Homo sapiens, UniProt P43403)	kinase activity	–	10 µM	–	inhibition	36.8%
CC1(C)CCC(Cc2cc(O)c(-c3ccccc3)c(=O)[nH]2)CC1	Mycobacterium tuberculosis	–	H37Rv	10 × MIC	–	resistance frequency	1e-08 per cell
CCc1nc(N)nc(N)c1C#CCc1cc(OC)cc(-c2ccc(C(=O)O)cc2)c1	Mycobacterium tuberculosis	–	PAS-resistant thyX -16 C>T	–	–	MIC	16 µg/mL
COCCOc1ccc2nc3ccc(=O)cc-3oc2c1	Mycobacterium tuberculosis	–	mc2 6206 bedaquiline-resistant MmpL5 regulator mutant	7 days	–	MIC90	51 µM (≈ 13.8 µg/mL)
CCN1CCN(Cc2ccc(NC(=O)c3ccc(C)c(/C=C/c4cnc5[nH]ccc5c4OC)c3)cc2C(F)(F)F)CC1	EKC/KEOPS complex subunit TP53RK (TP53RK, Homo sapiens, UniProt Q96S44)	inhibitor, cell-based kinome screen	–	5 µM	relative to: vehicle	log2 fold change	-0.102
CS(=O)(=O)NC(=O)NCc1cc(-c2ccc(Br)cc2)oc1-c1ccncc1	Mycobacterium tuberculosis	–	EthA C253R mutant	–	–	MIC	0.5 µM
CCc1nc(N)nc(N)c1C#C[C@@H](C)c1cc(OC)cc(-c2ccc(C(=O)O)cc2)c1	Mycobacterium tuberculosis	–	PAS-resistant folC I43T	–	–	MIC	0.015 µg/mL
COc1c(C)c(-c2ccc(Cc3ccccc3)cc2)nc2ccccc12	Mycobacterium tuberculosis	growth	H37Rv	Wayne model, O2-limited	–	IC50	1600 ± 330 nM
O=c1ccc2nc3ccc(OCC4CCOCC4)cc3oc-2c1	Mycobacterium tuberculosis	–	mc2 6206 clofazimine-resistant fbiC mutant	7 days	–	MIC90	225 µM (≈ 70.1 µg/mL)
CS(=O)(=O)NC(=O)NCc1cn(-c2ccc(Cl)cc2)nc1-c1ccncc1	Mycobacterium tuberculosis	OD600	QcrB A317T mutant	–	–	MIC	0.5 µM

Repeated from above:
SMILES	target or system	test	test system	setting	scale	endpoint	value
CS(=O)(=O)NC(=O)NCc1cn(-c2ccc(Cl)cc2)nc1-c1ccncc1	Mycobacterium tuberculosis	OD600	QcrB A317T mutant	–	–	MIC	0.5 µM
